# Results from different studies.
# Compare with care: the assays were run in different laboratories. ± marks the error that the study gave.
SMILES,assay,test system,conditions,how to read,measurement,value
C=C1C(=O)O[C@@H]2C[C@@H](C)[C@@H]3C=CC(=O)[C@@]3(C)[C@@H](O)[C@H]12,propidium iodide flow cytometry,"primary splenocytes, BALB/c mouse","48 h, 10% fetal calf serum",,CC50,0.32 ± 0.3 µg/mL
COc1ccc(-c2cc(=O)c3c(OC)c(OC)c(OC)cc3o2)cc1,,"C57BL/6 mouse, male, testes","oral, 1% w/w in diet, 6 weeks, orange peel extract diet",reference: content in orange peel,tissue to peel content ratio,0.023%
N.N.[Cl][Pt][Cl],,patients advanced solid tumours,"day 1 dosing, with: eribulin mesylate 1.2 mg/m^2",,maximum tolerated dose,75 mg/m²
CC[C@H](C)[C@H](NC(=O)[C@H](CCCCN)NC(=O)[C@H](CCCCN)NC(=O)[C@H](C)NC(=O)[C@@H](NC(=O)[C@H](CCCCN)NC(=O)[C@H](C)NC(=O)[C@H](C)NC(=O)[C@@H](NC(=O)CNC(=O)[C@H](C)NC(=O)[C@@H](NC(=O)[C@H](CCCCN)NC(=O)[C@@H]1CCCN1C(=O)[C@H](Cc1ccccc1)NC(=O)[C@@H](N)Cc1ccccc1)C(C)C)C(C)C)C(C)C)C(=O)N[C@@H](Cc1ccccc1)C(=O)N[C@H]1CSSC[C@@H](C(=O)O)NC(=O)[C@H](CCCCN)NC(=O)[C@H](CCCCN)NC(=O)[C@H](CO)NC(=O)[C@H]([C@@H](C)CC)NC(=O)[C@H]([C@@H](C)O)NC1=O,haemolysis,horse erythrocytes,"2 h, 37 °C",,HC10,4.59 µM
CSCC[C@@H]1NC(=O)[C@H](CC(=O)O)NC(=O)CNC(=O)[C@H](CCCNC(=N)N)NC(=O)[C@H](C)NC(=O)[C@H](CCC(=O)O)NC(=O)[C@H](CCCNC(=N)N)NC(=O)[C@@H]2CSSC[C@@H]3NC(=O)[C@H](CO)NC(=O)[C@H]([C@@H](C)O)NC(=O)[C@@H]4CCCN4C(=O)[C@H](C)NC(=O)[C@H](Cc4c[nH]c5ccccc45)NC(=O)[C@H](CC(=O)O)NC(=O)CNC(=O)[C@H](CCCNC(=N)N)NC(=O)CNC(=O)[C@H](CCC(N)=O)NC(=O)[C@@H]4CCCN4C(=O)[C@@H](NC(=O)CNC(=O)C(C)F)CSSC[C@H](NC(=O)CNC(=O)[C@H](C)NC(=O)[C@H](CC(C)C)NC(=O)[C@H](CSSC[C@@H](C(=O)NCC(N)=O)NC(=O)[C@H]([C@@H](C)O)NC(=O)[C@H](CCCNC(=N)N)NC(=O)[C@@H]4CCCN4C1=O)NC(=O)[C@H](CC(=O)O)NC(=O)[C@H](CO)NC(=O)[C@H](CC(=O)O)NC(=O)[C@H](CCC(N)=O)NC(=O)[C@H](CO)NC3=O)C(=O)N[C@@H](C(C)C)C(=O)N2 (stereo partly drawn) [fluorine-18 labelled],,"nude mice U-87 MG xenograft, liver","intravenous, 0.5 h",,tissue uptake,0.68 ± 0.12 %ID/g
[123I]c1cncc(OC[C@@H]2CCN2)c1,SPECT,"human, cingulate gyrus","intravenous bolus plus infusion, 8.1 mCi",reference: tissue over plasma,tissue/plasma ratio,19.4
CC(C)C[C@H](NC(=O)[C@H](CCC(=O)O)NC(=O)[C@H](CCC(=O)O)NC(=O)[C@H](CC(=O)O)NC(=O)[C@H](CCC(=O)O)NC(=O)[C@H](CCC(=O)O)NC(=O)[C@H](CCC(=O)O)NC(=O)[C@@H](N)CC(=O)O)C(=O)O,,"rat, CSF","subcutaneous, 11.0 mg/kg, 30 min",,concentration,15.3 ng/mL
COC(=O)N[C@H](C(=O)N1CCC[C@H]1C(=O)Nc1ccc([C@@H]2CC[C@@H](c3ccc(NC(=O)[C@@H]4CCCN4C(=O)[C@@H](NC(=O)OC)C(C)C)cc3)N2c2ccc(C(C)(C)C)cc2)cc1)C(C)C,,"healthy human volunteers, plasma","oral, dose not given, alone, pravastatin interaction study",,AUC(0-24),1020 ng·h/mL
CCCCCCCCCCCCCC(=O)NCC(=O)N[C@@H](Cc1ccc(O)cc1)C(=O)NCC(=O)N[C@@H](CCCNC(=N)N)C(=O)N[C@@H](CCCCN)C(=O)N[C@@H](CCCCN)C(=O)N[C@@H](CCCNC(=N)N)C(=O)N[C@@H](CCCNC(=N)N)C(=O)N[C@@H](CCC(N)=O)C(=O)N[C@@H](CCCNC(=N)N)C(=O)N[C@@H](CCCNC(=N)N)C(=O)N[C@@H](CCCNC(=N)N)C(=O)N[C@@H](C)C(=O)N[C@@H](CCCNC(=N)N)C(=O)N[C@@H](CO)C(=O)N[C@@H](CCCNC(=N)N)C(=O)N[C@@H](CC(C)C)C(=O)N[C@@H](C)C(=O)N[C@@H](CCC(=O)O)C(=O)N[C@@H](CC(C)C)C(=O)N[C@@H](CCCNC(=N)N)C(=O)NCC(=O)N[C@H](C(=O)N1CCC[C@H]1C(=O)N[C@@H](CCCNC(=N)N)C(=O)NCC(=O)N[C@@H](CC(C)C)C(=O)O)C(C)C,,rat,"intrathecal, 20 µg/5 µL, cutoff 180 s",,minimum time on rotarod,147 ± 20 s
CN[C@@](C)(C[18F])C(=O)O,,"SCID mouse SK-OV-3 xenograft, heart","30 min, post injection",,tissue uptake,2.4 ± 0.6 %ID/g
CCCCCOc1ccc(-c2ccc(-c3ccc(C(=O)N[C@H]4C[C@@H](O)[C@@H](O)NC(=O)[C@@H]5[C@@H](O)[C@@H](C)CN5C(=O)[C@H]([C@@H](C)O)NC(=O)[C@H]([C@H](O)[C@@H](O)c5ccc(O)cc5)NC(=O)[C@@H]5C[C@@H](O)CN5C(=O)[C@H]([C@@H](C)O)NC4=O)cc3)cc2)cc1,noncompartmental,"human neonates not on ECMO, complete sampling, plasma","intravenous, 1.5 mg/kg/day maintenance, doses 3-5, 1 neonate excluded",,median AUC at steady state,85.5 µg·h/mL
Cc1c(P(=S)(c2ccccc2)c2ccccc2)n2ccccc2[n+]1C/C=C/c1ccccc1,,"mouse, plasma","intraperitoneal, 10 mg/kg, 24 h",,plasma concentration,25 ng/mL

# A few entries again:
SMILES,assay,test system,conditions,how to read,measurement,value
CN[C@@](C)(C[18F])C(=O)O,,"SCID mouse SK-OV-3 xenograft, heart","30 min, post injection",,tissue uptake,2.4 ± 0.6 %ID/g
CCCCCOc1ccc(-c2ccc(-c3ccc(C(=O)N[C@H]4C[C@@H](O)[C@@H](O)NC(=O)[C@@H]5[C@@H](O)[C@@H](C)CN5C(=O)[C@H]([C@@H](C)O)NC(=O)[C@H]([C@H](O)[C@@H](O)c5ccc(O)cc5)NC(=O)[C@@H]5C[C@@H](O)CN5C(=O)[C@H]([C@@H](C)O)NC4=O)cc3)cc2)cc1,noncompartmental,"human neonates not on ECMO, complete sampling, plasma","intravenous, 1.5 mg/kg/day maintenance, doses 3-5, 1 neonate excluded",,median AUC at steady state,85.5 µg·h/mL
